Results from different studies.
± marks the error that the study gave.
gag-pol I1092V reverse transcriptase I505V: Gag-Pol polyprotein, reverse transcriptase I505V (gag-pol, Human immunodeficiency virus type 1 group M subtype B, UniProt P04585, I1092V)
gag-pol integrase: Gag-Pol polyprotein, integrase (gag-pol, Human immunodeficiency virus type 1 group M subtype B, UniProt P04585)
gag-pol D654N/K657R/K806Q/T802F reverse transcriptase: Gag-Pol polyprotein, reverse transcriptase (gag-pol, Human immunodeficiency virus type 1 group M subtype B, UniProt P04585, D654N/K657R/K806Q/T802F)
rep main protease: Replicase polyprotein 1ab, main protease (rep, Severe acute respiratory syndrome coronavirus 2, UniProt P0DTD1)
gag-pol K652R reverse transcriptase: Gag-Pol polyprotein, reverse transcriptase (gag-pol, Human immunodeficiency virus type 1 group M subtype B, UniProt P04585, K652R)

Cc1cn([C@H]2C=C[C@@H](COP(=O)(O)OP(=O)(O)OP(=O)(O)O)O2)c(=O)[nH]c1=O — IC50 (Gag-Pol polyprotein, reverse transcriptase (gag-pol, Human immunodeficiency virus type 1 group M subtype B, UniProt P04585, K653N); inhibitor; HIV-1): 8640 ± 1230 nM
Cn1cnc(Cn2c(=O)[nH]/c(=N\c3cc4cn(C)nc4cc3Cl)n(Cc3cc(F)c(F)cc3F)c2=O)n1 — anaemia TEAE, Mild severity (human, mild renal impairment; oral, 375 mg): 12.5%
COc1ccc2ccccc2c1/C=N/NC(=O)c1ccc(O)c(O)c1 — IC50 (gag-pol I1092V reverse transcriptase I505V; RNase H activity, inhibitor; HIV-1): 900 ± 100 nM
NC1CCc2cc(O)c(O)cc2C1 (racemic) — IC50 (gag-pol integrase; enzyme activity, inhibitor): > 25000 nM
O=P(O)(O)C(O)(Cc1cnc2ccccn12)P(=O)(O)O — IC50 (gag-pol D654N/K657R/K806Q/T802F reverse transcriptase; inhibitor, biochemical): ≥ 100000 nM
CC1(C)CC[C@@]2(CO)C(=C3C=C[C@@H]4[C@@]5(C)CC[C@H](O)[C@@](C)(CO)[C@@H]5CC[C@@]4(C)[C@]3(C)C[C@@H]2O)C1 — inhibition (rep main protease; reporter gene (Gaussia luciferase), inhibitor; 20 µM): 0.177%
O=P(O)(O)C(O)(Cc1cccc(-c2cc(F)ccc2F)c1)P(=O)(O)O — IC50 (gag-pol D654N/K657R/K806Q/T802F reverse transcriptase): 1580 nM
Nc1ncnc2c([C@@H]3N[C@H](CO)[C@@H](O)[C@H]3O)c[nH]c12 — inhibition (Japanese encephalitis virus; viral replication, inhibitor; Vero 76; 94.7 µM): 104%
COc1ccc(C(=O)Nc2sc3c(c2C(=O)Nc2ccccn2)CCCCC3)cc1OC — IC50 (Gag-Pol polyprotein, reverse transcriptase p51 C280A (gag-pol, Human immunodeficiency virus type 1 group M subtype B, UniProt P04585, C867A)): > 50000 nM
O=C(O)c1ccc(-c2cccc(/C=N/NC(=O)c3cc(O)c(O)c(O)c3)c2)cc1 — IC50 (Gag-Pol polyprotein, reverse transcriptase A502G (gag-pol, Human immunodeficiency virus type 1 group M subtype B, UniProt P04585, A1089G); RNase H activity, inhibitor; HIV-1): 1000 ± 700 nM
CSCC(CC(=O)c1ccc(C)cc1)C(=O)O (centres unmarked) — inhibition (rep main protease; viral replication, Gluc reporter; SARS-CoV-2; 20 µM): -0.471%
C[C@H](Cn1cnc2c(N)ncnc21)OCP(=O)(O)O — IC50 (gag-pol K652R reverse transcriptase; inhibitor; HIV-1): 2531 ± 1.16 nM
Oc1ccc(C2CNCc3sccc32)cc1O (centres unmarked) — IC50 (gag-pol integrase; enzyme activity, inhibitor): > 25000 nM
CC[C@H](C)[C@H](NC(=O)[C@H](CC(C)C)NC(=O)[C@H](Cc1c[nH]c2ccccc12)NC(=O)[C@H](CCC(N)=O)NC(=O)[C@@H](NC(=O)[C@H](Cc1ccccc1)NC(=O)[C@H](C)NC(=O)[C@H](CCCCNC(=O)COCCOCCNC(=O)COCCOCCNC(=O)CC[C@H](NC(=O)CCCCCCCCCCCCCCCCCCC(=O)O)C(=O)O)NC(=O)[C@H](CCC(N)=O)NC(=O)[C@H](C)NC(=O)[C@@H](NC(=O)[C@H](CCCCN)NC(=O)[C@H](CC(=O)O)NC(=O)[C@H](CC(C)C)NC(=O)C(C)(C)NC(=O)[C@@H](NC(=O)[C@H](CO)NC(=O)[C@H](Cc1ccc(O)cc1)NC(=O)[C@H](CC(=O)O)NC(=O)[C@H](CO)NC(=O)[C@@H](NC(=O)[C@H](Cc1ccccc1)NC(=O)[C@@H](NC(=O)CNC(=O)[C@H](CCC(=O)O)NC(=O)C(C)(C)NC(=O)[C@@H](N)Cc1ccc(O)cc1)[C@@H](C)O)[C@@H](C)O)[C@@H](C)CC)[C@@H](C)CC)C(C)C)C(=O)N[C@@H](C)C(=O)NCC(=O)NCC(=O)N1CCC[C@H]1C(=O)N[C@@H](CO)C(=O)N[C@@H](CO)C(=O)NCC(=O)N[C@@H](C)C(=O)N1CCC[C@H]1C(=O)N1CCC[C@H]1C(=O)N1CCC[C@H]1C(=O)N[C@@H](CO)C(N)=O — serum AST (healthy subjects, single ascending dose; 1.0 mg, baseline): 22.2 ± 5.4 U/L
O=P(O)(O)C(O)(Cc1cccc(-c2ccc(Cl)cc2)c1)P(=O)(O)O — IC50 (gag-pol D654N/K657R/K806Q/T802F reverse transcriptase): 794 nM
Cc1cn([C@H]2C[C@H](N=[N+]=[N-])[C@@H](CO[P@](=O)(O)O[P@](=O)(O)OP(=O)(O)O)O2)c(=O)[nH]c1=O — IC50 (gag-pol K652R reverse transcriptase; inhibitor; HIV-1): 453.9 ± 1.44 nM
O=C(O)c1ccc(-c2cccc(/C=N/NC(=O)c3ccc(O)c(O)c3)c2)cc1 — IC50 (gag-pol I1092V reverse transcriptase I505V; RNase H activity, inhibitor; HIV-1): 1000 ± 200 nM
